{"data": "Experimental data collected from several papers", "target": "Mitogen-activated protein kinase kinase kinase 11 (MAP3K11, Homo sapiens, UniProt Q16584)"}
{"SMILES": "NC(=O)[C@@H](O)C[C@H]1CCc2sc3ncnc(O[C@H]4CC[C@H](N5CCOCC5)CC4)c3c21", "test": "enzyme activity, inhibitor", "conditions": "10 µM", "endpoint": "inhibition", "value": "8%"}
{"SMILES": "CCN1CCN(Cc2ccc(C(=O)Nc3ccc(C)c(NCc4cnc5[nH]ccc5c4OC)c3)cc2C(F)(F)F)CC1", "test": "binding, competition with immobilised ligand", "conditions": "1 µM", "endpoint": "remaining binding", "value": "62%"}
{"SMILES": "Cc1cnc2nc1Nc1cccc(c1)COC/C=C/COCc1cc(ccc1OCCN1CCOCC1)N2", "test": "cell-free assay", "conditions": "0.1 µM", "endpoint": "remaining signal", "value": "97%"}
{"SMILES": "Nc1ncc2c(n1)-c1c([nH]c3ccc(C4=CCOCC4)cc13)CCC2", "test": "binding, competition with immobilised ligand", "conditions": "1 µM", "endpoint": "remaining binding", "value": "100%"}
{"SMILES": "CNC1C[S+]2CC[S+]3CC[S+](C1)[Ru-4]321([N]=C=S)[n]2c3ccc(OC)cc3c3c4c(c5cc(F)c[n+]1c5c32)C(=O)NC4=O (stereo not drawn)", "test": "KinomeScan", "conditions": "0.1 µM", "scale": "reference: untreated", "endpoint": "remaining binding", "value": "98%"}
{"SMILES": "CN1CCN(Cc2ccc(-c3ccc(CO[C@H]4CCC[C@@H]4NC(=O)c4cc(-c5cnn(C)c5)cnc4N)cc3)cc2)CC1", "test": "enzyme activity, inhibitor", "conditions": "0.1 µM", "endpoint": "inhibition", "value": "-1%"}
{"SMILES": "C=CC(=O)N1CCCC(n2c(=O)c3ncccc3n(Cc3ccc(Oc4ccccc4)cc3)c2=O)C1 (stereo not drawn)", "test": "cell-free assay, competition with immobilised ligand", "conditions": "1 µM", "endpoint": "remaining binding", "value": "93%"}
{"SMILES": "C=CC(=O)N1Cc2nc(-c3cc(-c4cc(Cl)cnc4Cl)c(F)cc3F)n(-c3ccncn3)c2C1", "test": "cell-free assay, inhibitor", "conditions": "1 µM", "endpoint": "inhibition", "value": "-0.2%"}
{"SMILES": "CC(C)=CC1OC(C)(C)C2C=C3C(=O)C(Cl)=CC(O)C3C3C(O)C4OC4C(=O)C132 (stereo not drawn)", "test": "cell-free assay, competition with immobilised ligand", "conditions": "10 µM", "endpoint": "remaining binding", "value": "99%"}
{"SMILES": "CNC(=O)C1CCN(c2cc(C)c(F)cc2NC(=O)c2ccc(-c3cc(O)ccc3C)c(C)c2)CC1", "test": "binding, competition with immobilised ligand", "conditions": "1 µM", "endpoint": "remaining binding", "value": "99%"}
{"SMILES": "COc1cc(Nc2nccc(-c3cnn4nc(OC)ccc34)n2)cc(C(F)(F)F)c1", "test": "binding, competition with immobilised ligand", "conditions": "1 µM", "endpoint": "remaining binding", "value": "100%"}
{"SMILES": "c1ccc2c(Nc3cc(C4CCC4)[nH]n3)nc(Nc3ccc4nc[nH]c4c3)nc2c1", "test": "enzyme activity, inhibitor", "conditions": "0.25 µM", "endpoint": "remaining activity", "value": "3%"}
{"SMILES": "O=C(Cc1ccc(OCc2ccccc2)cc1)NC1(C(=O)O)CCN(C(=O)c2ccc(-c3cccc(Cl)c3)cc2)CC1", "test": "enzyme activity, inhibitor", "conditions": "10 µM", "endpoint": "activity vs control", "value": "72%"}
{"SMILES": "CCn1cc(C(=O)O)c(=O)c2c(N)c(F)c(NC3CCCCC3)cc21", "test": "kinase activity", "conditions": "0.1 µM, together with: ATP at Km", "endpoint": "inhibition", "value": "1.3%"}
{"SMILES": "CN1CC[C@@H](COc2cnc(C#N)cc2-c2ccn3nc(NC(=O)C4CC4)cc3c2)C1", "test": "enzyme activity, inhibitor", "conditions": "1 µM", "endpoint": "inhibition", "value": "8%"}
{"SMILES": "Cc1ccc(-c2c(/C=C(\\C#N)C(=O)NC(C)C)n(CCCO)c3ncnc(N)c23)cc1", "test": "cell-free assay, competition with immobilised ligand", "conditions": "1 µM", "endpoint": "remaining binding", "value": "90%"}
{"SMILES": "COc1cc(Nc2nc(C)cc(-c3cnn4nc(OC)ccc34)n2)cc(C(F)(F)F)c1", "test": "inhibitor", "conditions": "1 µM, MLK3", "scale": "reference: control", "endpoint": "remaining activity", "value": "79%"}
{"SMILES": "CS(=O)(=O)Nc1cccc(-c2csc3cnc(Nc4ccc(N5CCN(CCCCCOc6cccc7c6C(=O)N(C6CCC(=O)NC6=O)C7=O)CC5)cc4)nc23)c1 (stereo not drawn)", "test": "probe labelling, inhibitor, KiNativ chemoproteomics", "system": "MOLT-4", "conditions": "1 µM", "endpoint": "inhibition", "value": "68.7%"}
{"SMILES": "NC(=O)C[C@H]1CCc2sc3ncnc(O[C@H]4CC[C@H](N5CCOCC5)CC4)c3c21", "test": "enzyme activity, inhibitor", "conditions": "10 µM", "endpoint": "inhibition", "value": "1%"}
{"SMILES": "COc1c(Cl)cccc1Nc1c(-c2ccncc2C#C[C@@]2(C)CCCN2C(=O)/C=C/CN(C)C)[nH]c2c1C(=O)NCC2", "test": "binding, competition with immobilised ligand", "conditions": "3 µM", "endpoint": "remaining binding", "value": "100%"}
{"SMILES": "C=CC(=O)N1CCc2ccc(-n3c(=O)ccc4cnc5ccc(-c6cnn(C)c6)cc5c43)cc21", "test": "KINOMEscan", "conditions": "1 µM", "scale": "reference: DMSO control", "endpoint": "remaining binding", "value": "100%"}
{"note": "Some of these lines once more:"}
{"SMILES": "NC(=O)C[C@H]1CCc2sc3ncnc(O[C@H]4CC[C@H](N5CCOCC5)CC4)c3c21", "test": "enzyme activity, inhibitor", "conditions": "10 µM", "endpoint": "inhibition", "value": "1%"}
{"SMILES": "COc1c(Cl)cccc1Nc1c(-c2ccncc2C#C[C@@]2(C)CCCN2C(=O)/C=C/CN(C)C)[nH]c2c1C(=O)NCC2", "test": "binding, competition with immobilised ligand", "conditions": "3 µM", "endpoint": "remaining binding", "value": "100%"}
{"SMILES": "C=CC(=O)N1CCc2ccc(-n3c(=O)ccc4cnc5ccc(-c6cnn(C)c6)cc5c43)cc21", "test": "KINOMEscan", "conditions": "1 µM", "scale": "reference: DMSO control", "endpoint": "remaining binding", "value": "100%"}
